Values quoted from earlier work, collected from citations in different studies.
Lines come from different studies, so protocols differ. ± gives the spread as reported.
Metallo-beta-lactamase type 2: Metallo-beta-lactamase type 2 (Serratia marcescens, UniProt P52699)
Sequence of UniProt P52699 (whole entry, looked up): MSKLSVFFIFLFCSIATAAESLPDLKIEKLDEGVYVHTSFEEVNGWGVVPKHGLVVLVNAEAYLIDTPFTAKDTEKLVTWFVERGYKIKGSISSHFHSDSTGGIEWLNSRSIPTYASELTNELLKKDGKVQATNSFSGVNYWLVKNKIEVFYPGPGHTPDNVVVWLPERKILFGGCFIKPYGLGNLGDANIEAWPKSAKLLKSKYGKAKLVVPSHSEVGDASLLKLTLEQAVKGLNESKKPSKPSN
Oprd1: Delta-type opioid receptor (Oprd1, Rattus norvegicus, UniProt P33533)
Sequence of UniProt P33533 (whole entry, looked up): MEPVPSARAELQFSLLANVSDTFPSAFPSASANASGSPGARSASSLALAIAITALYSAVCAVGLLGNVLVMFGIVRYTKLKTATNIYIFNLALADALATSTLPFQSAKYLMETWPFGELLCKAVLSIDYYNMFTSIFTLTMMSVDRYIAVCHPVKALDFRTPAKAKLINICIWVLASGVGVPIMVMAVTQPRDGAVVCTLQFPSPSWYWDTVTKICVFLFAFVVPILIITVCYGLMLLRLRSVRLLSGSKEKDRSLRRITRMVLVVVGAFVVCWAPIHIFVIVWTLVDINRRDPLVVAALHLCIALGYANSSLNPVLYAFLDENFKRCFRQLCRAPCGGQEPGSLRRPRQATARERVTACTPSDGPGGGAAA
Sequence of UniProt Q04609 (whole entry, looked up): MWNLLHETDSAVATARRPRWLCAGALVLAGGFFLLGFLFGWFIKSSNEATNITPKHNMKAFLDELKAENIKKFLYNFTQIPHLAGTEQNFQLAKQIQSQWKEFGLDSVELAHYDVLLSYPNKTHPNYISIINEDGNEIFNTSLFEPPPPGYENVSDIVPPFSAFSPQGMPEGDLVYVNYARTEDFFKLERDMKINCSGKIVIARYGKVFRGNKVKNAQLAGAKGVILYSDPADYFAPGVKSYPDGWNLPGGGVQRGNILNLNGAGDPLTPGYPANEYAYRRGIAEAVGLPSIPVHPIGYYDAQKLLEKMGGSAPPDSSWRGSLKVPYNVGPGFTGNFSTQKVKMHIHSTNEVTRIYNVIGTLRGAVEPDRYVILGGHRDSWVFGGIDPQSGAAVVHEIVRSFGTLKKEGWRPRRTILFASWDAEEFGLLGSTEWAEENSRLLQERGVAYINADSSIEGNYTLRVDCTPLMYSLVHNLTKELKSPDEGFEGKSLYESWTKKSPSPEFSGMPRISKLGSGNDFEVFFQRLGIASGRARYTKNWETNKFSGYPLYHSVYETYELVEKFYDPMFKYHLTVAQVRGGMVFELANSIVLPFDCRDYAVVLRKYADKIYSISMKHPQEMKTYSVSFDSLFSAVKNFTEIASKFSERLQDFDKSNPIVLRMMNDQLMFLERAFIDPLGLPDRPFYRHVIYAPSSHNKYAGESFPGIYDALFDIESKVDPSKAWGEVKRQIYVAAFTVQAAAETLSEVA
Sequence of UniProt P35348 (whole entry, looked up): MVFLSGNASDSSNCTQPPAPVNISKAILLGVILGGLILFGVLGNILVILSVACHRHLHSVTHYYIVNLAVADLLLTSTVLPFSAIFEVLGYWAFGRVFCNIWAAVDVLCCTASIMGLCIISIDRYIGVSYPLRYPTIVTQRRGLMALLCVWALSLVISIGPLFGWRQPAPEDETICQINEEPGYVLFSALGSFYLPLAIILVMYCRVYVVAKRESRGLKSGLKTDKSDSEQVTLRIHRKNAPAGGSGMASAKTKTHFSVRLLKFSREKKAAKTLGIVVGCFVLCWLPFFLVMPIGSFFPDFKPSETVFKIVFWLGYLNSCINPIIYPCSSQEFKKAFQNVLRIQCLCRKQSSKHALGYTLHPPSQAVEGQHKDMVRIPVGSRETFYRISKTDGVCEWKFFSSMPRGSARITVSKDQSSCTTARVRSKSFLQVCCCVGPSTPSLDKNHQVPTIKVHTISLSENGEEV
Sequence of UniProt P26769 (whole entry, looked up): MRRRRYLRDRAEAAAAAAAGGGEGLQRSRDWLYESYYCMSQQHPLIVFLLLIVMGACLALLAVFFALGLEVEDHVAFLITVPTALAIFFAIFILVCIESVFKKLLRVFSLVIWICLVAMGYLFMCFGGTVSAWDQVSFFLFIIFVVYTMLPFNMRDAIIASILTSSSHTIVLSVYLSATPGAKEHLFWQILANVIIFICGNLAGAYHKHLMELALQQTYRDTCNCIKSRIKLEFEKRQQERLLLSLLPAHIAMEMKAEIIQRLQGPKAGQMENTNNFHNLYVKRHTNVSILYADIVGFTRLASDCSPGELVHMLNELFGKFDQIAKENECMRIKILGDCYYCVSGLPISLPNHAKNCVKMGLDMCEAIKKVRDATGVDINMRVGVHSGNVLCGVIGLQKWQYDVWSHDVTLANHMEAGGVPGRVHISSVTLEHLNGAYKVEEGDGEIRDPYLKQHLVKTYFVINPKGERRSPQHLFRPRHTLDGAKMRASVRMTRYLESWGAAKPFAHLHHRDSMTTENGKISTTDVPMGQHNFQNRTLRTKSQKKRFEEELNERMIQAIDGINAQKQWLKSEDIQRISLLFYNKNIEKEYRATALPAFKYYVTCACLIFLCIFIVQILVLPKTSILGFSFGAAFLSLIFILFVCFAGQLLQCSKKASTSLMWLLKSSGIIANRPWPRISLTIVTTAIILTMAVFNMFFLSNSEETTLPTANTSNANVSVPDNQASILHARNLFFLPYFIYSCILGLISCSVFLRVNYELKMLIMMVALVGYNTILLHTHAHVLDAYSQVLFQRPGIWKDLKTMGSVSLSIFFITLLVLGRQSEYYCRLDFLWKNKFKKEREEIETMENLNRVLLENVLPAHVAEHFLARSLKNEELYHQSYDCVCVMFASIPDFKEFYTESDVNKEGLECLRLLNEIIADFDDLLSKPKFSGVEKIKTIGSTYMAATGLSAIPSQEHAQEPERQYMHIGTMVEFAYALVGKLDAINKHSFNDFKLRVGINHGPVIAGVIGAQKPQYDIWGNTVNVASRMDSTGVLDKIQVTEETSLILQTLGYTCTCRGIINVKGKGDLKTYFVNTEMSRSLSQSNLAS
Sequence of UniProt C7C422 (whole entry, looked up): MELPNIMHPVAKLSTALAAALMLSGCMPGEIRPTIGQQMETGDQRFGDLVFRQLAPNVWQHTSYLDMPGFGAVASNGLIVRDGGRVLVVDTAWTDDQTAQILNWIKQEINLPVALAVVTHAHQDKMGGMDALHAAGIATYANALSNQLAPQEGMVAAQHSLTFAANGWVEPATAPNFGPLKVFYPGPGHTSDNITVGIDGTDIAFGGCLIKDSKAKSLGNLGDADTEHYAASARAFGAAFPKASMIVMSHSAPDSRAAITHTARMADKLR
Sequence of UniProt P41020 (whole entry, looked up): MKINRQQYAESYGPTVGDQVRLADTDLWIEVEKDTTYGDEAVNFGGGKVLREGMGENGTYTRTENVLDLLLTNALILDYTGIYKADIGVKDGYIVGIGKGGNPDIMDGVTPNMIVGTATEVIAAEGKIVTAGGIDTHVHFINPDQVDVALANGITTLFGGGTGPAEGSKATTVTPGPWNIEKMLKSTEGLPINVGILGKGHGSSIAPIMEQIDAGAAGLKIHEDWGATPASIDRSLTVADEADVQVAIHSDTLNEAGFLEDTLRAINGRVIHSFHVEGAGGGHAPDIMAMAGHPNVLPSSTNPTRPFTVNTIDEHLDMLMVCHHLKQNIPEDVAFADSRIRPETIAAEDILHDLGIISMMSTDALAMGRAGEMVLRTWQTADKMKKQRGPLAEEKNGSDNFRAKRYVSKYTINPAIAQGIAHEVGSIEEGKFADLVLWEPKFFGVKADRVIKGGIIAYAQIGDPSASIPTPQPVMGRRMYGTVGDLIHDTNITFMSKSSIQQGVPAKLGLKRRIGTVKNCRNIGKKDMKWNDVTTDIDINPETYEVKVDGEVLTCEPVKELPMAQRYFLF

For `O=C(O)[C@H]1CS[C@@H]2CS[C@@H](CS)N12`, the Ki was 6000 ± 1000 nM (Metallo-beta-lactamase type 2; inhibitor).
`C=CC(=O)N1CCC[C@@H](n2nc(-c3cn(C)c4ccccc34)c3c(N)ncnc32)C1` gave a Ki of 16 ± 5.2 nM (EGFR (Homo sapiens, UniProt P00533, L858R/T790M)).
The Ki of `CP(=O)(O)CN` is reported as 340000 ± 22000 nM (Urease subunit alpha (Sporosarcina pasteurii, UniProt P41020); enzyme activity, inhibitor).
With `CC(C)C[C@H](NC(=O)[C@@H]1CCCN1C(=O)[C@@H](N)CCCCN)C(=O)N[C@@H](CCC(=O)O)C(=O)N[C@H](CN[C@@H](Cc1ccc(O)cc1)C(=O)N[C@@H](CCCNC(=N)N)C(=O)N[C@H](C(=O)O)C(C)C)Cc1ccccc1` the Ki was 0.5 ± 0.09 nM (Plasmepsin IV (PMIV, Plasmodium falciparum 3D7, UniProt Q8IM16)).
For `O=C(OCC[18F])C1C2CCC(CC1c1ccc(/C=C\I)cc1)N2` (stereo not shown), “time to peak uptake” read over 75 min (SERT; HRRT PET; awake rhesus monkey, thalamus).
With `Cc1nc2cc(-c3cccc(C#N)c3)ccc2s1` the Ki was 2100 nM (mGlu5 receptor; binding, radioligand binding).
For `CC(O)CN1CCN(CCSC(c2ccc(F)cc2)c2ccc(F)cc2)CC1` (stereo not shown), the Ki was 213 ± 13.2 nM (Slc6a4 (Rattus norvegicus, UniProt P31652); binding; rat brain membranes).
The Ki of `CSC[C@H]1CN(Cc2c[nH]c3c(N)ncnc23)C[C@@H]1O` is reported as 0.571 nM (Helicobacter pylori MTA/SAH nucleosidase; inhibitor).
With `O=C([O-])CN1CCN(CC(=O)[O-])CCN(CC(=O)NCC2CCC(C(=O)NC(Cc3ccc4ccccc4c3)C(=O)NCCCCC(NC(=O)NC(CCC(=O)O)C(=O)O)C(=O)O)CC2)CCN(CC(=O)[O-])CC1.[Lu+3]` (stereo not shown) the Ki was 6.91 ± 1.32 nM (FOLH1 (Homo sapiens, UniProt Q04609); LNCaP).
`N/C(=N\Cc1ccccc1)C(/N=N/c1ccccc1)C(=O)NCc1ccccc1` (stereo not shown) gave a Ki of 37 nM (cannabinoid receptor CB2).
For `CCN1CCCC1CNC(=O)c1cc(Br)cc(OC)c1OC` (stereo not shown) [carbon-11 labelled], the Ki was 0.42 nM (dopamine D3 receptor; added: [3H]spiperone).
`CC[C@H](C)C(=O)N1CCC(NC(=O)Nc2ccc(OC(F)(F)F)c(F)c2)CC1` gave an IC50 of 1400 nM (BCRP; inhibitor).
For `CN[C@H](CC(C)C)C(=O)N[C@H]1C(=O)N[C@@H](CC(N)=O)C(=O)N[C@H]2C(=O)N[C@H]3C(=O)N[C@H](C(=O)N[C@H](C(=O)O)c4cc(O)cc(O)c4-c4cc3ccc4O)[C@H](O)c3ccc(c(Cl)c3)Oc3cc2cc(c3O[C@@H]2O[C@H](CO)[C@@H](O)[C@H](O)[C@H]2O[C@H]2C[C@](C)(NCc3ccc(-c4ccc(Cl)cc4)cc3)[C@H](O)[C@H](C)O2)Oc2ccc(cc2Cl)[C@H]1O`, the clearance was 2.17 mL/min/kg (mouse; intravenous, 75 mg/kg, maximum tolerated dose).
With `CCCC[C@@H](C(=O)N[C@@H](CC(=O)O)C(=O)N[C@@H](Cc1ccccc1)C(N)=O)N(C)C(=O)[C@@H](Cc1c[nH]c2ccccc12)NC(=O)CNC(=O)[C@@H](Cc1ccccc1)NC(=O)[C@@H](N)Cc1ccc(O)cc1` the Ki was 1.6 nM (CCK2 receptor; binding).
`Cc1cc(O)cc(C)c1C[C@H](N)C(=O)N[C@H](C)C(=O)N[C@@H](Cc1ccccc1)C(=O)N[C@@H](CCC(=O)O)C(=O)N[C@H](C(=O)N[C@H](C(=O)NCC(N)=O)C(C)C)C(C)C` has a Ki of 0.16 ± 0.03 nM (Oprd1; binding; rat brain synaptosomes).
For `Nc1ccccc1C(=O)O[C@H]1[C@@H](O)[C@H](n2cnc3c(=O)[nH]cnc32)O[C@@H]1COP(=O)(O)O`, the Ki was 7500 ± 1400 nM (Adcy2 (Rattus norvegicus, UniProt P26769); enzyme activity, inhibitor; Sf9 membranes; added: 5 mM MnCl2 and 100 µM forskolin).
The Ki of `CN(C[C@H](O)[C@@H](O)[C@H](O)[C@H](O)CO)C(=O)c1ccc(CN(Cc2ccccn2)Cc2ccccn2)nc1` is reported as 310000 nM (blaNDM-1 (Klebsiella pneumoniae, UniProt C7C422)).
`N[C@H](Cc1ccccc1)P(=O)(O)O` gave a Ki of 11600 nM (phenylalanine ammonia-lyase (maize)).
`CC(C)(C)c1ccc(C(=O)Nc2cc(Cl)c(Br)cc2C(=O)O)cc1` has a Ki of 700 nM (Phosphotransferase (Trypanosoma brucei, UniProt Q38C42); enzyme activity, mixed inhibitor; added: ATP).
`O=C1N[C@@H](Cc2ccccc2)C(=O)N2CCC[C@@H]2C(=O)N[C@@H](Cc2ccccc2)C(=O)N[C@H]1Cc1c[nH]c2ccccc12` has a Ki of 4150 ± 3020 nM (DOR opioid receptor; binding).
`CC[C@H](C)[C@@H]1NC(=O)[C@H](Cc2c[nH]c3ccccc23)NC(=O)[C@H](CCCCCC(=O)NO)NC(=O)[C@H]2CCCCN2C1=O` gave a Ki of about 0.04 nM (Histone deacetylase 3, with NCoR2 DAD domain (HDAC3, Homo sapiens, UniProt O15379); enzyme activity, inhibitor; added: NCoR2 DAD domain).
With `CC1(C)S[C@H]2CS[C@H](CS)N2[C@@H]1C(=O)O` the Ki was 15000 ± 3000 nM (Metallo-beta-lactamase type 2; inhibitor).
The Ki of `O=C(NC1CCN(CCc2c[nH]c3ccccc23)CC1)c1ccccc1` is reported as 611 nM (ADRA1A (Homo sapiens, UniProt P35348); binding).
`CC(=O)N[C@@H](Cc1ccccc1)C(=O)N[C@@H](Cc1ccccc1)C(=O)N[C@@H](Cc1ccccc1)C(=O)N[C@@H](CCCNC(=N)N)C(=O)N[C@@H](CC(C)C)C(=O)N[C@@H](CCCNC(=N)N)C(=O)N[C@@H](CCCNC(=N)N)C(=O)N[C@H](C)C(=O)N[C@@H](CCCNC(=N)N)C(=O)N1CCC[C@H]1C(=O)N[C@@H](CCCCN)C(N)=O` has a Ki of over 5000 nM (delta opioid receptor; binding).
`CC(C)[C@H](NC(=O)[C@@H]1CCCN1C(=O)[C@@H](N)CCCCN)C(=O)N[C@@H](CCC(=O)O)C(=O)N[C@H](CN[C@@H](CCCNC(=N)N)C(=O)N[C@@H](CCC(N)=O)C(=O)N[C@H](C(=O)O)[C@@H](C)O)Cc1ccccc1` has a Ki of over 20000 nM (Plasmepsin II (Plasmodium falciparum, UniProt P46925)).
With `CC1(C)SCCSC[C@@H](NC(=O)[C@@H](N)Cc2ccc(O)cc2)C(=O)N[C@@H](Cc2ccccc2)C(=O)N[C@H]1C(N)=O` the Ki was 25 ± 1.5 nM (Oprd1; binding).
For `CC(C)C[C@H](NC(=O)[C@@H]1CCCN1C(=O)[C@@H](N)CCCCN)C(=O)N[C@@H](CCC(=O)O)C(=O)N[C@H](CN[C@@H](Cc1ccccc1)C(=O)N[C@@H](CCCNC(=N)N)C(=O)N[C@H](C(=O)O)C(C)C)Cc1ccccc1`, the Ki was 0.6 ± 0.08 nM (Aspartic protease PM4 (Plasmodium vivax, UniProt O60989)).
With `COC(=O)C1C(OC(c2ccc(Cl)cc2)c2ccc(Cl)cc2)CC2CCC1N2C` (single isomer, unassigned) the Ki was 12.6 ± 0.4 nM (dopamine transporter).

Excerpt of the above:
`CC(=O)N[C@@H](Cc1ccccc1)C(=O)N[C@@H](Cc1ccccc1)C(=O)N[C@@H](Cc1ccccc1)C(=O)N[C@@H](CCCNC(=N)N)C(=O)N[C@@H](CC(C)C)C(=O)N[C@@H](CCCNC(=N)N)C(=O)N[C@@H](CCCNC(=N)N)C(=O)N[C@H](C)C(=O)N[C@@H](CCCNC(=N)N)C(=O)N1CCC[C@H]1C(=O)N[C@@H](CCCCN)C(N)=O` has a Ki of over 5000 nM (delta opioid receptor; binding).
`CC(C)[C@H](NC(=O)[C@@H]1CCCN1C(=O)[C@@H](N)CCCCN)C(=O)N[C@@H](CCC(=O)O)C(=O)N[C@H](CN[C@@H](CCCNC(=N)N)C(=O)N[C@@H](CCC(N)=O)C(=O)N[C@H](C(=O)O)[C@@H](C)O)Cc1ccccc1` has a Ki of over 20000 nM (Plasmepsin II (Plasmodium falciparum, UniProt P46925)).
With `CC1(C)SCCSC[C@@H](NC(=O)[C@@H](N)Cc2ccc(O)cc2)C(=O)N[C@@H](Cc2ccccc2)C(=O)N[C@H]1C(N)=O` the Ki was 25 ± 1.5 nM (Oprd1; binding).
For `CC(C)C[C@H](NC(=O)[C@@H]1CCCN1C(=O)[C@@H](N)CCCCN)C(=O)N[C@@H](CCC(=O)O)C(=O)N[C@H](CN[C@@H](Cc1ccccc1)C(=O)N[C@@H](CCCNC(=N)N)C(=O)N[C@H](C(=O)O)C(C)C)Cc1ccccc1`, the Ki was 0.6 ± 0.08 nM (Aspartic protease PM4 (Plasmodium vivax, UniProt O60989)).
